Assay results gathered from unrelated publications.
Protocols differ between the studies behind these lines. “And” joins repeats or separate records; there may be more than shown.
Cell line: K562

The GI50 of `CN(C)C(=O)c1cncc(-c2cnc3[nH]cc(-c4cc(OS(=O)(=O)F)ccc4C#N)c3c2)c1` is reported as greater than 1000 nM (cell growth or viability, MTT; 72 h).
For `CC(C)(C)C(=O)OCOP(=O)(OCOC(=O)C(C)(C)C)C1CCCN(O)C1=O` (centres unmarked), the log TGI was greater than -4 log M.
`Cc1cc(Oc2nc(N3CC[C@@H](c4ccncc4)C3)ncc2F)[nH]n1` has an IC50 of 20400 nM (cell proliferation; blood cancer).
With `CC1CCC2C(C)C(OC(=O)CCC(=O)N3CCC(Nc4ccc(S(=O)(=O)NC(=O)c5ccc(N6CCN(CC7=C(c8ccc(Cl)cc8)CC(C)(C)CC7)CC6)cc5Oc5cnc6[nH]ccc6c5)cc4[N+](=O)[O-])CC3)OC3OC4(C)CCC1C32OO4` (centres unmarked) the viable cells was 92.1% (annexin V/PI flow cytometry, item: annexin V-/PI-; 3.2 µM, 24 h).
With `CN(C)C(=O)c1cncc(-c2cnc3[nH]cc(-c4cc(OS(=O)(=O)F)ccc4C(F)(F)F)c3c2)c1` the GI50 was greater than 1000 nM (cell growth or viability, MTT; 72 h).
`Cc1sc2c(c1C)C(c1ccc(NC(=O)c3cc([N+](=O)[O-])ccc3F)cc1)=N[C@@H](CC(=O)OC(C)(C)C)c1nnc(C)n1-2` has an IC50 of 0.012 nM (cell growth or viability, ATP luminescence; 72 h).
`O=C(O)c1ccc(-c2nc(-c3ccccc3Cl)c3sccn23)cc1` gave a CD61-positive cells of 3.5% and 1.4% (megakaryocyte differentiation, flow cytometry; 0.01 mM, 48 h).
With `Cc1[nH][n+]([Pt-2]([Cl])([n+]2[nH]c(C)c(CSC3CCCCC3)c2C)[n+]2[nH]c(C)c(CSC3CCCCC3)c2C)c(C)c1CSC1CCCCC1.[Cl-]` the selectivity index was 2.8 (cytotoxicity; reference: IC50 HEK293 over IC50 K562).

Repeated from above:
`Cc1cc(Oc2nc(N3CC[C@@H](c4ccncc4)C3)ncc2F)[nH]n1` has an IC50 of 20400 nM (cell proliferation; blood cancer).
